# Experimental data gathered from unrelated publications.
test,test system,setting,aqueous solubility,Structure (SMILES)
filtration and HPLC-MS,water,room temperature,7.68 ppm,CC(C)CCCC(C)CCCC(C)CCOC1O[C@H](CO)[C@@H](O)[C@H](O)[C@@H]1O (stereo partly drawn)
,saline or PBS,,< 1 µg/mL,COc1ccc2c(c1)c(CC(=O)Nc1nnc(CCCCc3ccc(NC(=O)Cc4cccc(OC(F)(F)F)c4)nn3)[se]1)cn2C
nephelometry,,,74 µg/mL,C[C@]12C[C@H](c3ccc(S(C)(=N)=O)cc3)C3=C4CCC(=O)C=C4CC[C@H]3[C@@H]1CC[C@@]2(O)C(F)(F)C(F)(F)F (stereo partly drawn)
precipitation,"PBS, from DMSO stock",concentration not given,not detected,CCCC1CCCc2c1[nH]c(=O)c(C#N)c2-c1ccc(C)cc1 (stereo not drawn)
,buffer,"7 days, pH 8.0, room temperature, final pH 7.96",90 µg/mL,COc1ccc(N2CCOCC2)c2sc(NC(=O)c3ccnc(CN4CCCC4)c3)nc12
UV absorbance,,pH 7.4,10 to 60 µg/mL,OC(CN1CCC2(CC1)CC(O)c1ccc3ccccc3c1O2)c1ccc(F)c(F)c1 (stereo not drawn)
shake-flask,,pH 7.0,1.7 µg/mL,O=C(Cc1ccccc1)Nc1nc2ccccc2n1Cc1ccccc1
filtration and HPLC-MS,water,room temperature,9.86 ppm,CC(C)CCCC(C)CCCC(C)CCOC1OC[C@H](O)[C@H](O)[C@H]1O (stereo partly drawn)
,,HCl salt,30000 µg/mL,CN1CCC(NC(=O)c2ccc(-c3cc(-c4ccc(F)cc4)c4oc5c(c4c3)CCN(C(=O)/C=C/c3ccc(N)nc3)C5)nn2)C(F)(F)C1 (stereo not drawn)

# For quick reference, copied from above:
test,test system,setting,aqueous solubility,Structure (SMILES)
filtration and HPLC-MS,water,room temperature,9.86 ppm,CC(C)CCCC(C)CCCC(C)CCOC1OC[C@H](O)[C@H](O)[C@H]1O (stereo partly drawn)
